Measured values of several laboratories.
Each line is one published result; not all experiments were run side by side. “And” joins repeats or separate records; there may be more than shown. ± marks the error that the study gave.

COc1cc2c(c(OC)c1OC)-c1ccc(OC)c(=O)cc1[C@@H](NC(C)=O)CC2
cytostasis (human peripheral blood lymphocytes; in vitro micronucleus test; 0.1 µg/mL, 3 h exposure, -S9, 27 h harvest): 87%

O=S(=O)(c1ccc(O)cc1)c1ccc(O)cc1
necrotic cells (HepG2 spheroids; annexin V-FITC/PI flow cytometry; 0.01 µM, 96 h): 43.3 ± 7.68%

Cc1ccc(OCCc2ccc(C3CC3)cc2)c(C(N)=O)c1
selectivity ratio (HepG2; 3 (unit not given); baseline: CC50 glucose over CC50 galactose): 4 and > 4

CNCC(O)CC12CCC(c3ccccc31)c1ccccc12 (stereo not drawn)
CC50 (African green monkey cells; 5 days): 28.2 µM

Oc1ccc(C2(c3ccc(O)cc3)c3ccccc3-c3ccccc32)cc1
late apoptotic cells (HepG2 spheroids; annexin V-FITC/PI flow cytometry; 0.10 µM, 96 h): 28.6 ± 6.73%

CC(C)c1ccc(NC(=O)N(C)C)cc1
IC10 (rat hepatoma cells; cell confluency, IncuCyte imaging; 24 h, nominal concentration): 124 µM

Cc1c(CN2CCN(c3cccc(C(F)(F)F)c3)CC2)cc(-c2ccccc2)n1NC(=O)c1ccncc1
CC50 (African green monkey cells; 5 days): 14.3 µM

CCOP(=S)(OCC)Oc1cc(C)nc(C(C)C)n1
toxic ratio (rat hepatoma cells; cell confluency; 24 h, nominal concentration; baseline: baseline IC10 over IC10): 0.77

CC[C@H](C)[C@H](NC(=O)[C@H](CCCNC(=N)N)NC(=O)[C@H](CCCCN)NC(=O)[C@H](CCC(N)=O)NC(=O)[C@H](CCCNC(=N)N)NC(=O)[C@H](CCCNC(=N)N)NC(=O)[C@H](Cc1c[nH]cn1)NC(=O)[C@H](CC(C)C)NC(=O)[C@H](CC(C)C)NC(=O)[C@H](CCCNC(=N)N)NC(=O)[C@H](CC(C)C)NC(=O)CN)C(=O)N[C@H](C(=O)NCC(=O)NCC(=O)N[C@@H](CCCCN)C(=O)N[C@@H](CC(N)=O)C(=O)N[C@@H](CO)C(=O)N[C@@H](CC(C)C)C(=O)N[C@@H](CCCNC(=N)N)C(=O)NCC(=O)NCC(=O)N[C@@H](Cc1c[nH]c2ccccc12)C(=O)N1CCC[C@H]1C(=O)N[C@@H](Cc1c[nH]c2ccccc12)C(=O)N[C@@H](CCC(N)=O)C(=O)N[C@H](C(=O)N[C@@H](CO)C(=O)N[C@@H](CC(C)C)C(=O)N[C@@H](CCCNC(=N)N)C(=O)N[C@@H](CC(C)C)C(=O)N[C@@H](CCCCN)C(=O)O)C(C)C)[C@@H](C)CC
HC50 (human red blood cells; hemolysis): 259 µmol/L

CC(C)C[C@H](NC(=O)CN)C(=O)N[C@@H](CCCCN)C(=O)N[C@@H](CCCCN)C(=O)N[C@@H](CC(C)C)C(=O)N[C@@H](CC(C)C)C(=O)N[C@@H](CC(C)C)C(=O)N[C@@H](CC(C)C)C(=O)N[C@@H](CC(C)C)C(=O)N[C@@H](CCCCN)C(=O)N[C@@H](CCCCN)C(=O)N[C@@H](CC(C)C)C(=O)NCC(=O)NCC(=O)NCC(=O)N[C@@H](Cc1ccccc1)C(=O)N[C@@H](CO)C(=O)N[C@@H](CC(C)C)C(=O)N[C@@H](C)C(=O)N1CCC[C@H]1C(=O)N[C@@H](Cc1ccc(O)cc1)C(=O)N[C@@H](C)C(=O)N1CCC[C@H]1C(=O)N[C@@H](C)C(=O)N1CCC[C@H]1C(=O)N[C@H](C(=O)N[C@@H](CC(N)=O)C(=O)O)C(C)C
lowest cytotoxic concentration (HEK-293T cells; CCK-8; 4 h, 37 °C, 10% cell death): 64 µg/mL

Cc1cc(C(C)(C)c2ccc(O)c(C)c2)ccc1O
necrotic cells (HepG2 spheroids; annexin V-FITC/PI flow cytometry; 0.10 µM, 96 h): 31.7 ± 16.3%

OCc1cc(C(O)CNCCCCCCOCCCCc2ccccc2)ccc1O (stereo not drawn)
CC50 (African green monkey cells; 5 days): 18.6 µM

CC[C@H](C)[C@H](NC(=O)[C@H](CCCCN)NC(=O)[C@H](CCCCN)NC(=O)CNC(=O)[C@H](CCCCN)NC(=O)[C@H](CC(C)C)NC(=O)[C@H](CCCCN)NC(=O)[C@H](CCCNC(=N)N)NC(=O)[C@@H](NC(=O)[C@H](CC(C)C)NC(=O)[C@H](CCCNC(=N)N)NC(=O)[C@@H](N)CCCNC(=N)N)[C@@H](C)CC)C(=O)N[C@@H](Cc1ccc(O)cc1)C(=O)N[C@@H](CC(C)C)C(=O)N[C@@H](Cc1ccc(O)cc1)C(=O)N[C@@H](Cc1ccccc1)C(=O)N[C@@H](CCCCN)C(=O)N[C@@H](CC(C)C)C(=O)N[C@@H](CCC(N)=O)C(=O)N[C@@H](CC(C)C)C(=O)N[C@@H](CC(C)C)C(=O)N[C@@H](CCCCN)C(=O)N[C@@H](CCCCN)C(N)=O
viability (RAW264.7; MTT; 64 µM, 48 h): ~80%

CC(c1ccccc1)(c1ccc(O)cc1)c1ccc(O)cc1
necrotic cells (HepG2 spheroids; annexin V-FITC/PI flow cytometry; 1 µM, 96 h): 39.5 ± 14.1%

CC(=O)c1cc(-c2ccsc2)ccc1OCCc1cccc(F)c1
CC50 (HepG2; 3 (unit not given), glucose medium): > 100 µM

CC(C)Cn1cnc2c(N)nc3ccccc3c21
viability (HFF-1; 10 µg/mL, 48 h): 78.3%

CC[C@H](C)[C@H](NC(=O)[C@H](CCCCN)NC(=O)[C@H](CCCNC(=N)N)NC(=O)[C@H](CCC(N)=O)NC(=O)[C@H](CCCNC(=N)N)NC(=O)CNC(=O)[C@H](Cc1ccccc1)NC(=O)[C@H](CCCNC(=N)N)NC(=O)[C@H](CCCNC(=N)N)NC(=O)[C@H](Cc1ccccc1)NC(=O)[C@H](CC(C)C)NC(=O)[C@@H]1CCCN1C(=O)[C@@H](NC(=O)[C@H](CC(N)=O)NC(=O)[C@@H](NC(=O)[C@@H](NC(=O)[C@H](CO)NC(=O)[C@H](CC(N)=O)NC(=O)[C@H](CCCNC(=N)N)NC(=O)[C@@H]1CCCN1C(=O)[C@@H](NC(=O)[C@@H]1CCCN1C(=O)[C@@H](N)Cc1ccccc1)[C@@H](C)CC)[C@@H](C)O)C(C)C)[C@@H](C)CC)C(=O)NCC(=O)NCC(=O)N[C@@H](CCCNC(=N)N)C(=O)NCC(=O)N[C@@H](CCCNC(=N)N)C(=O)N[C@H](C(=O)N[C@H](C(=O)N[C@@H](CO)C(=O)N1CCC[C@H]1C(=O)N[C@@H](Cc1ccc(O)cc1)C(=O)N[C@@H](CCCNC(=N)N)C(=O)N[C@H](C(=O)N1CCC[C@H]1C(=O)N[C@H](C(=O)N[C@@H](CC(C)C)C(=O)N[C@@H](CCCNC(=N)N)C(=O)N[C@@H](CCCNC(=N)N)C(=O)N[C@@H](Cc1c[nH]cn1)C(=O)N[C@@H](CCCNC(=N)N)C(=O)N[C@@H](Cc1ccc(O)cc1)C(=O)N[C@@H](CO)C(=O)N[C@H](C(=O)N[C@@H](Cc1ccccc1)C(=O)N[C@@H](CCCNC(=N)N)C(=O)O)[C@@H](C)CC)C(C)C)[C@@H](C)O)[C@@H](C)CC)[C@@H](C)CC
HC50 (human red blood cells; hemolysis): 303 µmol/L

COc1ccc2c(c1)N(C[C@H](C)CN(C)C)c1ccccc1S2
CC50 (African green monkey cells; 5 days): 22.9 µM

CC(=O)N[C@@H](CCCCN)C(=O)N[C@@H](CC(C)C)C(=O)N[C@@H](CC(C)C)C(=O)N[C@@H](CCCCN)C(=O)N[C@@H](CC(C)C)C(=O)N[C@@H](CC(C)C)C(=O)N[C@@H](CCCCN)C(=O)N[C@@H](CCCCN)C(=O)N1CCC[C@H]1C(=O)N[C@@H](CC(C)C)C(=O)N[C@@H](CCCCN)C(=O)N[C@@H](CC(C)C)C(=O)N[C@@H](CC(C)C)C(=O)N[C@@H](CCCCN)C(=O)N[C@@H](CCCCN)C(N)=O
MHC10 (human red blood cells; haemolysis; 6 h, 37 °C, 5% haematocrit in PBS): > 160 µM

CC[C@H](C)[C@H](NC(=O)[C@H](CC(=O)O)NC(=O)[C@@H](NC(=O)[C@H](CC(N)=O)NC(=O)[C@@H]1CCCN1C(=O)[C@@H](NC(=O)[C@@H](N)Cc1ccccc1)[C@@H](C)O)[C@@H](C)O)C(=O)N[C@H](C(=O)N[C@H](C(=O)N[C@@H](CCCNC(=N)N)C(=O)N[C@H](C(=O)N[C@H](C(=O)NCC(=O)NCC(=O)NCC(=O)N[C@@H](CC(C)C)C(=O)N[C@@H](CCCCN)C(=O)N[C@@H](CCCCN)C(=O)N[C@@H](CC(C)C)C(=O)N[C@@H](CC(C)C)C(=O)N[C@@H](CC(C)C)C(=O)N[C@@H](CC(C)C)C(=O)N[C@@H](CC(C)C)C(=O)N[C@@H](CCCCN)C(=O)N[C@@H](CCCCN)C(=O)N[C@@H](CC(C)C)C(=O)NCC(=O)O)[C@@H](C)O)[C@@H](C)O)[C@@H](C)O)[C@@H](C)CC
lowest cytotoxic concentration (HEK-293T cells; CCK-8; 4 h, 37 °C, 10% cell death): 128 µg/mL

Nc1nc2c(ncn2[C@@H]2O[C@@H]3COP(=O)(O)O[C@H]4[C@@H](O)[C@H](n5cnc6c(=O)[nH]c(N)nc65)O[C@@H]4COP(=O)(O)O[C@H]3[C@H]2O)c(=O)[nH]1
viability (HFF-1; 0.1 µg/mL): 90.1%

CN(CCC(Oc1ccc(C(F)(F)F)cc1)c1ccccc1)N=O (stereo not drawn)
relative survival (TK6 expressing CYP2C19; 0.125 µM, 4 h, without S9; baseline: vehicle): 14.4%

CC[C@H](C)[C@H](NC(=O)[C@H](CC(=O)O)NC(=O)[C@@H](NC(=O)[C@H](CC(N)=O)NC(=O)[C@@H]1CCCN1C(=O)[C@@H](NC(=O)[C@H](Cc1ccccc1)NC(=O)CNC(=O)CNC(=O)CNC(=O)[C@H](CC(C)C)NC(=O)[C@H](CCCCN)NC(=O)[C@H](CCCCN)NC(=O)[C@H](CC(C)C)NC(=O)[C@H](CC(C)C)NC(=O)[C@H](CC(C)C)NC(=O)[C@H](CC(C)C)NC(=O)[C@H](CC(C)C)NC(=O)[C@H](CCCCN)NC(=O)[C@H](CCCCN)NC(=O)[C@@H](N)CC(C)C)[C@@H](C)O)[C@@H](C)O)C(=O)N[C@H](C(=O)N[C@H](C(=O)N[C@@H](CCCNC(=N)N)C(=O)N[C@H](C(=O)N[C@H](C(=O)O)[C@@H](C)O)[C@@H](C)O)[C@@H](C)O)[C@@H](C)CC
lowest cytotoxic concentration (HEK-293T cells; CCK-8; 4 h, 37 °C, 10% cell death): > 256 µg/mL

O=c1ccc2ccccc2o1
chance response (NHEK; caspase-3/7 activity; concentration not given, 6 h): 0.1%

CS(=O)(=O)c1cc(Br)cc(NCc2cccc(CN3C[C@H](O)[C@@H](O)[C@H](O)[C@H]3CO)c2)c1
viability (A549 expressing ACE2; WST-1; 25 µM, 3 days): 100%

C#Cc1ccc(OCCc2cccc(F)c2)c(C(N)=O)c1
CC50 (HepG2; galactose medium; 3 (unit not given)): 63 ± 18 µM

CC(C)CN(C[C@@H](O)[C@H](Cc1ccccc1)NC(=O)O[C@H]1CO[C@H]2OCC[C@H]21)S(=O)(=O)c1ccc2nc(NC3CCN(C4CCCC4)CC3)sc2c1
CC50 (African green monkey cells; 5 days): 14.3 µM

CC(=O)N[C@@H](CCCCN)C(=O)N[C@@H](CCCCN)C(=O)N[C@@H](CC(C)C)C(=O)N[C@@H](CC(C)C)C(=O)N[C@@H](CCCCN)C(=O)N[C@@H](CC(C)C)C(=O)N[C@@H](CC(C)C)C(=O)N[C@@H](CCCCN)C(=O)N[C@@H](CCCCN)C(=O)N1CCC[C@H]1C(=O)N[C@@H](CC(C)C)C(=O)N[C@@H](CCCCN)C(=O)N[C@@H](CC(C)C)C(=O)N[C@@H](CC(C)C)C(=O)N[C@@H](C)C(N)=O
MHC10 (human red blood cells; haemolysis; 6 h, 37 °C, 5% haematocrit in PBS): > 160 µM

COc1ccc2c(c1)c(CC(=O)O)c(C)n2C(=O)c1ccc(Cl)cc1
CC50 (African green monkey cells; 5 days): > 100 µM

CN(CCC=C1c2ccccc2CCc2ccccc21)N=O
relative survival (TK6 expressing CYP2C19; 0.25 µM, 4 h, without S9; baseline: vehicle): 21.8%

Excerpt of the above:
Cc1cc(C(C)(C)c2ccc(O)c(C)c2)ccc1O
necrotic cells (HepG2 spheroids; annexin V-FITC/PI flow cytometry; 0.10 µM, 96 h): 31.7 ± 16.3%

OCc1cc(C(O)CNCCCCCCOCCCCc2ccccc2)ccc1O (stereo not drawn)
CC50 (African green monkey cells; 5 days): 18.6 µM

CC[C@H](C)[C@H](NC(=O)[C@H](CCCCN)NC(=O)[C@H](CCCCN)NC(=O)CNC(=O)[C@H](CCCCN)NC(=O)[C@H](CC(C)C)NC(=O)[C@H](CCCCN)NC(=O)[C@H](CCCNC(=N)N)NC(=O)[C@@H](NC(=O)[C@H](CC(C)C)NC(=O)[C@H](CCCNC(=N)N)NC(=O)[C@@H](N)CCCNC(=N)N)[C@@H](C)CC)C(=O)N[C@@H](Cc1ccc(O)cc1)C(=O)N[C@@H](CC(C)C)C(=O)N[C@@H](Cc1ccc(O)cc1)C(=O)N[C@@H](Cc1ccccc1)C(=O)N[C@@H](CCCCN)C(=O)N[C@@H](CC(C)C)C(=O)N[C@@H](CCC(N)=O)C(=O)N[C@@H](CC(C)C)C(=O)N[C@@H](CC(C)C)C(=O)N[C@@H](CCCCN)C(=O)N[C@@H](CCCCN)C(N)=O
viability (RAW264.7; MTT; 64 µM, 48 h): ~80%

CC(c1ccccc1)(c1ccc(O)cc1)c1ccc(O)cc1
necrotic cells (HepG2 spheroids; annexin V-FITC/PI flow cytometry; 1 µM, 96 h): 39.5 ± 14.1%

CC(=O)c1cc(-c2ccsc2)ccc1OCCc1cccc(F)c1
CC50 (HepG2; 3 (unit not given), glucose medium): > 100 µM
